Measured values pooled from the literature.
Numbers after ± are the reported error.

For `C/C=C(/C)C(=O)O[C@H]1C(C)=C2[C@H]([C@@H]1OC(=O)CCCCCCC)[C@@](C)(OC(C)=O)C[C@H](OC(=O)CCCCCCCCCCCNC(=O)C[C@H](N)C(=O)N[C@@H](CCC(=O)N[C@@H](CCC(=O)N[C@@H](CCC(=O)N[C@@H](CCC(=O)O)C(=O)O)C(=O)O)C(=O)O)C(=O)O)[C@@]1(O)[C@H]2OC(=O)[C@@]1(C)O`, the terminal half-life was 21 h (patients, plasma; intravenous infusion, 1 h, days 1 to 3, geometric mean).
For `CCCC[C@H](NC(=O)CCCCCCCNC(=O)CN1CCN(CC(=O)O)CCN(CC(=O)O)CC1)C(=O)N[C@H]1CC(=O)NCCCC[C@@H](C(N)=O)NC(=O)[C@H](Cc2c[nH]c3ccccc23)NC(=O)[C@H](CCCNC(=N)N)NC(=O)[C@@H](Cc2ccccc2)NC(=O)[C@H](Cc2c[nH]cn2)NC1=O` [copper-64 labelled], the tissue uptake was 1.67 ± 0.68 %ID/g (C57 mice, stomach; intravenous, 0.37 MBq, 0.5 h).
For `CC(=O)N(O)CCCCCNC(=O)CCC(=O)N(O)CCCCCNC(=O)CCC(=O)N(O)CCCCCNC(=S)Nc1ccc(NC(=S)NCCC(=O)N[C@H](CC(=O)O)C(=O)N[C@H](CC(=O)O)C(=O)NCCC(=O)N[C@H](CC(=O)O)C(=O)N[C@H](CC(=O)O)C(=O)NCCC(=O)N[C@H](CC(=O)O)C(=O)N[C@H](CC(=O)O)C(=O)NCCC(=O)N[C@H](CC(=O)O)C(=O)N[C@H](CC(=O)O)C(N)=O)cc1` [zirconium-89 labelled], “time to urinary excretion” read no more than 1 h (PET/CT; BALB/cJ mice; intravenous, dose not given).
The tissue uptake of `N=C(N)NCCC[C@@H]1NC(=O)[C@H](CCCCNC(=O)CNC(=O)CNC(=O)CNC(=O)CC[C@H](NC(=O)CNC(=O)CNC(=O)CNC(=O)CC[C@H](NC(=O)CN2CCN(CC(=O)O)CCN(CC(=O)O)CCN(CC(=O)O)CC2)C(=O)NCC(=O)NCC(=O)NCC(=O)N[C@@H](CCC(=O)NCC(=O)NCC(=O)NCC(=O)NCCCC[C@@H]2NC(=O)[C@@H](Cc3ccccc3)NC(=O)[C@H](CC(=O)O)NC(=O)CNC(=O)[C@H](CCCNC(=N)N)NC2=O)C(=O)NCC(=O)NCC(=O)NCC(=O)NCCCC[C@@H]2NC(=O)[C@@H](Cc3ccccc3)NC(=O)[C@H](CC(=O)O)NC(=O)CNC(=O)[C@H](CCCNC(=N)N)NC2=O)C(=O)NCC(=O)NCC(=O)NCC(=O)NCCCC[C@@H]2NC(=O)[C@@H](Cc3ccccc3)NC(=O)[C@H](CC(=O)O)NC(=O)CNC(=O)[C@H](CCCNC(=N)N)NC2=O)NC(=O)[C@@H](Cc2ccccc2)NC(=O)[C@H](CC(=O)O)NC(=O)CNC1=O` [indium-111 labelled] is reported as 0.06 ± 0.02 %ID/g (female athymic nu/nu mice, blood; intravenous, 24 h).
For `CCCC[C@H](NC(=O)CNC(=O)CNC(=O)CN1CCN(CC(=O)O)CCN(CC(=O)O)CCN(CC(=O)O)CC1)C(=O)N[C@H]1CC(=O)NCCCC[C@@H](C(N)=O)NC(=O)[C@H](Cc2c[nH]c3ccccc23)NC(=O)[C@H](CCCNC(=N)N)NC(=O)[C@@H](Cc2ccccc2)NC(=O)[C@H](Cc2c[nH]cn2)NC1=O` [lutetium-177 labelled], the tissue uptake was less than 1.37 %ID/g (C57 mouse, female, normal organs except kidneys; iv, 0.037 MBq, 2 h).
`N=C(N)NCCC[C@@H]1NC(=O)[C@H](CCCCNC(=O)CNC(=O)CNC(=O)CNC(=O)CC[C@H](NC(=O)CNC(=O)CNC(=O)CNC(=O)CN2CCN(CC(=O)O)CCN(CC(=O)O)CCN(CC(=O)O)CC2)C(=O)NCC(=O)NCC(=O)NCC(=O)NCCCC[C@@H]2NC(=O)[C@@H](Cc3ccccc3)NC(=O)[C@H](CC(=O)O)NC(=O)CNC(=O)[C@H](CCCNC(=N)N)NC2=O)NC(=O)[C@@H](Cc2ccccc2)NC(=O)[C@H](CC(=O)O)NC(=O)CNC1=O` [indium-111 labelled] has a tissue uptake of 1.03 ± 0.12 %ID/g (female athymic nu/nu mice, heart; intravenous, 0.5 h).
`CCCC[C@H](NC(=O)COCCOCCNC(=O)CN1CCN(CC(=O)O)CCN(CC(=O)O)CC1)C(=O)N[C@H]1CC(=O)NCCCC[C@@H](C(N)=O)NC(=O)[C@H](Cc2c[nH]c3ccccc23)NC(=O)[C@H](CCCNC(=N)N)NC(=O)[C@@H](Cc2ccccc2)NC(=O)[C@H](Cc2c[nH]cn2)NC1=O` [copper-64 labelled] has a tissue uptake of 0.18 ± 0.06 %ID/g (C57 mice, blood; intravenous, 0.37 MBq, 2 h).
With `N=C(N)NCCC[C@@H]1NC(=O)[C@H](CCCCNC(=O)CC[C@H](NC(=O)CC[C@H](NC(=O)CN2CCN(CC(=O)O)CCN(CC(=O)O)CCN(CC(=O)O)CC2)C(=O)N[C@@H](CCC(=O)NCCCC[C@@H]2NC(=O)[C@@H](Cc3ccccc3)NC(=O)[C@H](CC(=O)O)NC(=O)CNC(=O)[C@H](CCCNC(=N)N)NC2=O)C(=O)NCCCC[C@@H]2NC(=O)[C@@H](Cc3ccccc3)NC(=O)[C@H](CC(=O)O)NC(=O)CNC(=O)[C@H](CCCNC(=N)N)NC2=O)C(=O)NCCCC[C@@H]2NC(=O)[C@@H](Cc3ccccc3)NC(=O)[C@H](CC(=O)O)NC(=O)CNC(=O)[C@H](CCCNC(=N)N)NC2=O)NC(=O)[C@@H](Cc2ccccc2)NC(=O)[C@H](CC(=O)O)NC(=O)CNC1=O` [indium-111 labelled] the tissue uptake was 0.78 ± 0.46 %ID/g (female athymic nu/nu mice, eyes; intravenous, 72 h).
Under “HPLC retention time”, `CC1(C)C(=CC=C2CCCC(C=CC3=[N+](CCCCS(=O)(=O)[O-])c4ccc(S(=O)(=O)O)cc4C3(C)C)=C2Oc2ccc(S(=O)(=O)O)cc2)N(CCCCCC(=O)NCCCC[C@H](NC(=O)[C@@H](CCC(=O)O)NC(=O)[C@@H](CCC(=O)O)NC(=O)[C@@H](CCC(=O)O)NC(=O)CCCCCNC(=O)C2CCC(CNC(=O)CC[C@H](NC(=O)N[C@@H](CCC(=O)O)C(=O)O)C(=O)O)CC2)C(N)=O)c2ccc(S(=O)(=O)O)cc21` (stereo partly drawn) is recorded as 23.4 min (reversed-phase HPLC, C18; 5-55% acetonitrile over 30 min).

A few entries again:
Under “HPLC retention time”, `CC1(C)C(=CC=C2CCCC(C=CC3=[N+](CCCCS(=O)(=O)[O-])c4ccc(S(=O)(=O)O)cc4C3(C)C)=C2Oc2ccc(S(=O)(=O)O)cc2)N(CCCCCC(=O)NCCCC[C@H](NC(=O)[C@@H](CCC(=O)O)NC(=O)[C@@H](CCC(=O)O)NC(=O)[C@@H](CCC(=O)O)NC(=O)CCCCCNC(=O)C2CCC(CNC(=O)CC[C@H](NC(=O)N[C@@H](CCC(=O)O)C(=O)O)C(=O)O)CC2)C(N)=O)c2ccc(S(=O)(=O)O)cc21` (stereo partly drawn) is recorded as 23.4 min (reversed-phase HPLC, C18; 5-55% acetonitrile over 30 min).
